# Measurements of several laboratories.
# Numbered parts are unrelated; each lists some results of a single study.
# Chain of UniProt O75716 (whole entry, looked up): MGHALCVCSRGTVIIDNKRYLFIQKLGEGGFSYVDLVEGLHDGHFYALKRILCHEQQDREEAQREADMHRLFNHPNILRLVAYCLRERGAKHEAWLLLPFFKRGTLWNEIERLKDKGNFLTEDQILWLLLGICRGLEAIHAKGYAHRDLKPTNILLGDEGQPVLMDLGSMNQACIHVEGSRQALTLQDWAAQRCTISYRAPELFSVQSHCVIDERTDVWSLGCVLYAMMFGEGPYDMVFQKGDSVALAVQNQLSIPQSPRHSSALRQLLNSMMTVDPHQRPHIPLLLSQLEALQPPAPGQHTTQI
# Chain of UniProt P78368 (whole entry, looked up): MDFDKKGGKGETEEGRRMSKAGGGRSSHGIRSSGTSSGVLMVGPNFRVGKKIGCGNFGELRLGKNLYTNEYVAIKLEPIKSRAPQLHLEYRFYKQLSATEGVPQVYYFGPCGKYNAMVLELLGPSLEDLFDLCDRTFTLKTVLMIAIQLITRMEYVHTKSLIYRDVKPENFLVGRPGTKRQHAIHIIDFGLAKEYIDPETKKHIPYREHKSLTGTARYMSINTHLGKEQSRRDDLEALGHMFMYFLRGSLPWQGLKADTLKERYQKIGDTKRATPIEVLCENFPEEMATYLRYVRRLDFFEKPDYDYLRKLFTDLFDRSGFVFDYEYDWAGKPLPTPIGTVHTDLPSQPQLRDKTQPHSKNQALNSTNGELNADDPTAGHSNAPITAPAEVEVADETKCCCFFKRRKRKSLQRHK
# Chain of UniProt P42685 (whole entry, looked up): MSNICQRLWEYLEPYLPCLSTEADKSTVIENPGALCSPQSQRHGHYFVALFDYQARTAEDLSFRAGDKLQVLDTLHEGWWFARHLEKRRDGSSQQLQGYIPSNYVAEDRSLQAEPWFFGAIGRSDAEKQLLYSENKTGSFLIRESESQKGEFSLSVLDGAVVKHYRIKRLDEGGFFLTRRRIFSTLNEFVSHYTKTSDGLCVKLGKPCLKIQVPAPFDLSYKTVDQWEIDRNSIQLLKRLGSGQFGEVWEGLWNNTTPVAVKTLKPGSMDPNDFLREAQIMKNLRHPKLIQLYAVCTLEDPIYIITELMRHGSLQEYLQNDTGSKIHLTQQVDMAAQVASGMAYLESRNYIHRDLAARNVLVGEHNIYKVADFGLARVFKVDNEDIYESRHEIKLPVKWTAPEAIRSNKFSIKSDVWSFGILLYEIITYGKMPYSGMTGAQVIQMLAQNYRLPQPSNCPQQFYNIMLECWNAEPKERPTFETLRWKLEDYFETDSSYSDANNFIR
# Chain of UniProt Q9HC98 (whole entry, looked up): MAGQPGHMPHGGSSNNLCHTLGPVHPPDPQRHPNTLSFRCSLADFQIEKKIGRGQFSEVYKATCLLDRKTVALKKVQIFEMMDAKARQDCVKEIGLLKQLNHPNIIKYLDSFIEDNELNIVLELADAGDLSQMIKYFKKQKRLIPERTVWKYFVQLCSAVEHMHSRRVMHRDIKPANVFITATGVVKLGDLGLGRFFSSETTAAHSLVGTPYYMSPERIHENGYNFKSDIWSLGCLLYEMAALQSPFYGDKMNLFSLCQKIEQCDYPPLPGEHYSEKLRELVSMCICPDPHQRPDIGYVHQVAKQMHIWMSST
# Chain of UniProt Q96PY6 (whole entry, looked up): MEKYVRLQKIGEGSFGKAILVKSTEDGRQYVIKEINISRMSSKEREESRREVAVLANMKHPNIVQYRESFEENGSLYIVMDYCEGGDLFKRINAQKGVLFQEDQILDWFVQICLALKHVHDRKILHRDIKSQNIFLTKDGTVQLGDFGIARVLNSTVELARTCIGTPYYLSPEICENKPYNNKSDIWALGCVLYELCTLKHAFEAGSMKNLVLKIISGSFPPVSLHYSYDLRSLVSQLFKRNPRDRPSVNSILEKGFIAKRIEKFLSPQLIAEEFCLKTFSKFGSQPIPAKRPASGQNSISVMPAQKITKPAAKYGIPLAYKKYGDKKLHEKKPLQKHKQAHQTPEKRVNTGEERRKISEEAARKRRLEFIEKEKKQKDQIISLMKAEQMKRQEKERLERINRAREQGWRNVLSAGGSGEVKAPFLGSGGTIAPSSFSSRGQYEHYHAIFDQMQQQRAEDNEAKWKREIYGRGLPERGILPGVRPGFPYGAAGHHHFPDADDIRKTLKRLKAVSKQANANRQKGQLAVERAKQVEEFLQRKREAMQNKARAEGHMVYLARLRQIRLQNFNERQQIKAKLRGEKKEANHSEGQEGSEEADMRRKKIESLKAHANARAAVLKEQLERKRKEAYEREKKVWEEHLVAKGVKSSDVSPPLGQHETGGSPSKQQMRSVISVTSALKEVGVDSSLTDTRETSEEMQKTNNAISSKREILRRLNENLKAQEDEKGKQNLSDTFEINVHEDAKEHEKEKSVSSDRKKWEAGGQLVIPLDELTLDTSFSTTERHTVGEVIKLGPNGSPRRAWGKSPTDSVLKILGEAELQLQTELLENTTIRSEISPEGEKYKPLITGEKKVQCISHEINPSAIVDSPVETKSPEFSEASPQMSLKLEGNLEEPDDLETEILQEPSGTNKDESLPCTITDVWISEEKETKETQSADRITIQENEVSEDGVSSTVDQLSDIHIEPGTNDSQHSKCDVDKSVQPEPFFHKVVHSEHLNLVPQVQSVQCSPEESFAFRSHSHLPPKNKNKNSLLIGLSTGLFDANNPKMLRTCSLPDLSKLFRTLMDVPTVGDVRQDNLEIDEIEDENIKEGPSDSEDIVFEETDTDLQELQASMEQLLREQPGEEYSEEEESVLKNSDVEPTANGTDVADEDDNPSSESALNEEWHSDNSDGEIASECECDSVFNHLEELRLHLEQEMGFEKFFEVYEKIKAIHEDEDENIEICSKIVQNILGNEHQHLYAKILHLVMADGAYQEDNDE
# Chain of UniProt Q15349 (whole entry, looked up): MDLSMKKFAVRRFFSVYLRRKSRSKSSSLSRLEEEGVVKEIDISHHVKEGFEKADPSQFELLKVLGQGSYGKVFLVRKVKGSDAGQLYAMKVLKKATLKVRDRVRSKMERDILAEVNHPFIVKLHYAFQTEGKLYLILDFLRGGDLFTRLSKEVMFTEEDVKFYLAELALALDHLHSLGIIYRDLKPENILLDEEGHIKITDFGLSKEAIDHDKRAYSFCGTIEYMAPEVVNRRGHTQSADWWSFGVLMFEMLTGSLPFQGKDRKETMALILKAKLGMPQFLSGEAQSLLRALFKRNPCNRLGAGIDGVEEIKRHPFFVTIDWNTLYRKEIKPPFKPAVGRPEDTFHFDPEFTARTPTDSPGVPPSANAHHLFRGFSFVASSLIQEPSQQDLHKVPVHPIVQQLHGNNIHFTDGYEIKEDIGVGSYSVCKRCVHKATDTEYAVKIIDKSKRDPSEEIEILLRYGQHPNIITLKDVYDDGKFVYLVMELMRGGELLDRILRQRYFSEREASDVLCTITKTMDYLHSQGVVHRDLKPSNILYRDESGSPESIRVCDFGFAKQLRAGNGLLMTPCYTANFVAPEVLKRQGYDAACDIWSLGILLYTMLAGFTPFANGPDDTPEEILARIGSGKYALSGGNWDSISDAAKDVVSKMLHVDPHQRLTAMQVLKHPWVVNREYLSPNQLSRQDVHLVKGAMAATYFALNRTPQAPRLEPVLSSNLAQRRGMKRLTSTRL
# Chain of UniProt P10398 (whole entry, looked up): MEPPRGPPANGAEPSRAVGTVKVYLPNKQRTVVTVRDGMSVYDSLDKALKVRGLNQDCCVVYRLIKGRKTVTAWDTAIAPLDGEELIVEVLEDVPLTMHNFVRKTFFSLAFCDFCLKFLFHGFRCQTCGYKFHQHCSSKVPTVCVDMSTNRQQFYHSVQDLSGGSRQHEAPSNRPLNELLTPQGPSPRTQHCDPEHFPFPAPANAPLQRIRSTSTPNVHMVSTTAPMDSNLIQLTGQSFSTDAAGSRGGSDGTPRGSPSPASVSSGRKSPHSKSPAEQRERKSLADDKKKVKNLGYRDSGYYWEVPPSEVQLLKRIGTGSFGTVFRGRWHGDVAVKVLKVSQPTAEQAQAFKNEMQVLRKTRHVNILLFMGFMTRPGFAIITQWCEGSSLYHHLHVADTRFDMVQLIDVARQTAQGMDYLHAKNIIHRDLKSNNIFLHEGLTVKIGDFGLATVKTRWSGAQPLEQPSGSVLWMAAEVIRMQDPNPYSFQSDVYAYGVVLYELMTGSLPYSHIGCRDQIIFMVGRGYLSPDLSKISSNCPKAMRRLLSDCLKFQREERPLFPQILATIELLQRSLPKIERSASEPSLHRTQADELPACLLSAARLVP
# Chain of UniProt P49137 (whole entry, looked up): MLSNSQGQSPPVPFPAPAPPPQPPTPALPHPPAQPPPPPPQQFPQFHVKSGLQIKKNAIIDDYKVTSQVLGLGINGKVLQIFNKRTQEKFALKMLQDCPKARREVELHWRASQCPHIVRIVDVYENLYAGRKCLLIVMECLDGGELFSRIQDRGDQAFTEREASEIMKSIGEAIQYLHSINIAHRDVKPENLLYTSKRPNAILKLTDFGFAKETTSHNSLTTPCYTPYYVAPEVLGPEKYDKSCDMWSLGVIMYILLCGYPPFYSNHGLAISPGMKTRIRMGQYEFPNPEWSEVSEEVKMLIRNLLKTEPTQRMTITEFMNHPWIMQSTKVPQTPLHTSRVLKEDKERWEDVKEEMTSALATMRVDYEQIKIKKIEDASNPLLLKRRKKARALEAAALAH

# Set 1
# Target: RNA binding protein fox-1 homolog 2, RRM domain, GST-SBP tag (RBFOX2, Homo sapiens, UniProt O43251-10, residues 100-194)
# Technique: RNA Bind-n-Seq
# Molecule type: RNA
# Sample: in vitro
# Tested at: 365 nM
# Notes: natural RNA segment, single round, ends assumed
# Relative to: no-protein control
# Reading: higher = stronger binding
# Shared flanks, not repeated: GGGAGUUCUACAGUCCGACGAUC … UGGAAUUCUCGGGUGCCAA
Oligonucleotide,RBNS enrichment (R)
UCCUGCUGACCCCUCCUGGACGGGCUGGAGCUGGGCUCCUGCCUUUGCUGCUAACACUGGAGGCGGUGUUCCUAACUGCAGUGUGCUGCUUACACCUCCCCGCGUGGGUA,0.48
AAUACCACAAUAUCGUUCCAUGCAUAUAUAACAUAUUAAUACUUGAUUUUGCUGAGCUGCAAAGGUAUCUGUCAUAAAAUAUGGUCCCCAGGAAAAGAAUCUCUGUGCUC,0.684
UGUUUCACAGAAUACCAGUUCAGUUUGAUUUGGAAAAAGAUGCCAAACCAAAUUUAUAUGUAGUCUAUAAUCUAAGGGCAUUCUUGAAACUAUUGCCCACAUCCCAUUUU,0.401
UAUGAUUUGGAGGGUUUAAUUUCCUUUUGUGAGGAUUACUGCUACUUCUUCCUAGCCAAUUCCUCAUUCUCUCACGUGACAACAGCUGAAAGUGCCAGGUGCUAGAUUCC,0.443
AGCUGUCCCCCUCCCACCCUACACAGUAGCUGGUCAGGGCUGAGUACAGUCCUGGGGGUAAGGGGAUGACAUGCCCAGGUGUCAGCUCAAAGGAUCUCUGCAUCAUCUUG,0.387
UUGUAUAUGUUUCCUGGAUGUCCUUGACGGGUACAAACACUGAUGUGGUGGUAGCCAUCCCACAUGGUGUCCAGAGGAAAGCUACGCGCAUUUAUACUGUCUGUUCUGUA,0.484
CUUCAUUGGCAUUGUUAGUCCCACAGGCCAAGGAUAAGGUUGAAAUGAGACGGCUUGUGUGUGAAAAGAUUUUGGAAAUUACACAGAUGUGGGCUUGUUAUUGGGAUGAA,2.24
CACUGCGUCUGGGCCUGAGACGUGCAUGGAGGGCUGUAAAGCCACGGAUUCCCCUCGCUGGAGAGGCUCCUGUCUGAUAGCGGUAGAUGAAAAAUAAGGUCGUUAUGACU,2.25

# Set 2
# Compound: CS(=O)(=O)c1cc(C2(NC(=O)c3cncc4c3cnn4-c3ccc(F)cc3)CC2)ccn1
# Effect on: cell-free assay
# Technique: competition with immobilised ligand
# Tested at: 1 µM
target,remaining binding
"Serine/threonine-protein kinase N1 (PKN1, Homo sapiens, UniProt Q16512)",100%
"Serine/threonine-protein kinase PAK 2 (PAK2, Homo sapiens, UniProt Q13177)",100%
"Serine/threonine-protein kinase 16 (STK16, Homo sapiens, UniProt O75716)",93%

# Set 3
# Structure (SMILES): N#CC(c1ccnc(NCCc2cccnc2)n1)c1nc2ccccc2s1 (centres unmarked)
# Effect on: enzyme activity
# Action: inhibitor
# Tested at: 0.5 µM
# Relative to: control
target,remaining activity
"MAP kinase-activated protein kinase 2 (MAPKAPK2, Homo sapiens, UniProt P49137)",97.8%
"Serine/threonine-protein kinase TBK1 (TBK1, Homo sapiens, UniProt Q9UHD2)",100%
"Casein kinase I isoform gamma-2 (CSNK1G2, Homo sapiens, UniProt P78368)",87%
"Serine/threonine-protein kinase ULK2 (ULK2, Homo sapiens, UniProt Q8IYT8)",116%
"Ribosomal protein S6 kinase alpha-2 (RPS6KA2, Homo sapiens, UniProt Q15349)",89.6%
"Serine/threonine-protein kinase Nek6 (NEK6, Homo sapiens, UniProt Q9HC98)",101%
"Wee1-like protein kinase (WEE1, Homo sapiens, UniProt P30291)",88.5%
"Serine/threonine-protein kinase Nek1 (NEK1, Homo sapiens, UniProt Q96PY6)",70%
"Tyrosine-protein kinase FRK (FRK, Homo sapiens, UniProt P42685)",97.5%
"Tyrosine-protein kinase Mer (MERTK, Homo sapiens, UniProt Q12866)",88.9%
"Fibroblast growth factor receptor 1 (FGFR1, Homo sapiens, UniProt P11362)",99%
"Serine/threonine-protein kinase TAO2 (TAOK2, Homo sapiens, UniProt Q9UL54)",86.4%
"Serine/threonine-protein kinase A-Raf (ARAF, Homo sapiens, UniProt P10398)",97.6%

# Set 4
# Target: Phosphate system positive regulatory protein PHO4, full length, GST-tagged (PHO4, Saccharomyces cerevisiae, UniProt P07270, residues 1-312)
# Technique: competition protein-binding microarray
# Molecule type: double-stranded DNA, one strand shown
# Sample: in vitro
# Tested at: 2 µM
# Notes: whole 60-bp probe, lowest competitor level
# Added: Cbf1 competitor, 0.05 µM
# Reading: higher = stronger binding
# Shared flanks, not repeated: … GTCTTGATTCGCTTGACGCTGCTG
# Residues (chain): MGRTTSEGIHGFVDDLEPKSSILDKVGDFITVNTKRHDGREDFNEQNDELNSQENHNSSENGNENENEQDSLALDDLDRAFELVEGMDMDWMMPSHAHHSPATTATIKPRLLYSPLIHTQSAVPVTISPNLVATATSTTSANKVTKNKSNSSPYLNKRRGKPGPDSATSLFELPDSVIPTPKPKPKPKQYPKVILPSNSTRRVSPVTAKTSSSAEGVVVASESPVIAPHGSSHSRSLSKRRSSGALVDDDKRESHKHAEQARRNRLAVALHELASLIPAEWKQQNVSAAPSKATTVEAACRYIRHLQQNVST
Oligonucleotide,fluorescence intensity
TGCAAGATCAAGTGCCGCGTGTCCTTATTGTTGTCC,11200 a.u.
AAAGCGGTAATTTGAGTTGTGGGTGCAGATATCTAT,4530 a.u.
GGAGTGAAAAGGGCGCTCAAAAATAGGCATATCTCA,2370 a.u.
TGCGCAACAACTTGTCACGAGACTTTATGTCTAGAA,7040 a.u.
AGTCAAGTAAGGCGTCACCTGATTCTACTCCGGCCC,3290 a.u.
CCAAGGAAGATGACGTTCGTGATGGCGTCATCAGAA,3960 a.u.
TTGGTATTTGCCATGCAGGTGATAGTGTTATGGGTT,7030 a.u.
CGGGGTTAAGTTTGTCACTAAACTTGCTTGCAGCAG,3390 a.u.

# A few entries again (set 4):
Oligonucleotide,fluorescence intensity
TGCGCAACAACTTGTCACGAGACTTTATGTCTAGAA,7040 a.u.
AGTCAAGTAAGGCGTCACCTGATTCTACTCCGGCCC,3290 a.u.
CCAAGGAAGATGACGTTCGTGATGGCGTCATCAGAA,3960 a.u.
